Results pooled from the literature.
Protocols differ between the studies behind these lines. “And” joins repeats or separate records; there may be more than shown. Numbers after ± are the reported error. ≈ marks a conversion by molar mass, not a printed value.
Chain of UniProt Q9EPB5 (whole entry, looked up): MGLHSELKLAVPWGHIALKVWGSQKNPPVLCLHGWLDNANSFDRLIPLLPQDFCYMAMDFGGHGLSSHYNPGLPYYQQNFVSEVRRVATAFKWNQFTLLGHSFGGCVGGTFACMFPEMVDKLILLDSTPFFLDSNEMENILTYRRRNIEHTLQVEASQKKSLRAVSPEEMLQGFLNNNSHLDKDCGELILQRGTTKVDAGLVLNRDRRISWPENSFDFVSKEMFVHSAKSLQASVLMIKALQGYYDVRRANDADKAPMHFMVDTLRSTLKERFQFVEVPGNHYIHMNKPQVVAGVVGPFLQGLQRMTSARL
Chain of UniProt Q9UM07 (whole entry, looked up): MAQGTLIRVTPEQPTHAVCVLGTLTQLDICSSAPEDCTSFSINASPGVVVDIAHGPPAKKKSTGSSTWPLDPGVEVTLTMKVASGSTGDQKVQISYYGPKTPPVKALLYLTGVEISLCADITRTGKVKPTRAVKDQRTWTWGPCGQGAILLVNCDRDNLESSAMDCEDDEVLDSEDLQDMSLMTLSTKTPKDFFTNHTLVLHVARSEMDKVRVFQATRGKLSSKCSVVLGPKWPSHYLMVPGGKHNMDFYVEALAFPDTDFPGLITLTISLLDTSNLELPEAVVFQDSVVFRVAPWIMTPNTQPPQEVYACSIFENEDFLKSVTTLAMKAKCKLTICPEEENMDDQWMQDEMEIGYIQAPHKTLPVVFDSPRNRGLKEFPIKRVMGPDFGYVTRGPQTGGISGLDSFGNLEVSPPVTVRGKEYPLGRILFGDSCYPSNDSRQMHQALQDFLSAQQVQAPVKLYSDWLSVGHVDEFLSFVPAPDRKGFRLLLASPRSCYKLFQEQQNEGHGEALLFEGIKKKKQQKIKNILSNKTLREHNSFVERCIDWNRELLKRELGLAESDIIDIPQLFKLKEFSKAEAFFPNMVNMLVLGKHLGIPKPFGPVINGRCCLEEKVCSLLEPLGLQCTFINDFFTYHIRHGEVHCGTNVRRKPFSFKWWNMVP
Chain of UniProt P15735 (whole entry, looked up): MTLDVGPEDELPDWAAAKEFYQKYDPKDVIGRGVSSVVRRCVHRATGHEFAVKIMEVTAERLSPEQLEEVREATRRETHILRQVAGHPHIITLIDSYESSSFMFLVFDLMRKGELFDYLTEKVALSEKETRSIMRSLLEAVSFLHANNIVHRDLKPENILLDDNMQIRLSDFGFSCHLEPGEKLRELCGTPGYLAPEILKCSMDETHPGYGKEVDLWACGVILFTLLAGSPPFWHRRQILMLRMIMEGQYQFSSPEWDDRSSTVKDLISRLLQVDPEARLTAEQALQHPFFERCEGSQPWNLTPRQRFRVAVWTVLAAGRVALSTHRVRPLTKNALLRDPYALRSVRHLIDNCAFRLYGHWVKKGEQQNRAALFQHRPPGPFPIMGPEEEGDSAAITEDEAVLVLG
Chain of UniProt O43603 (whole entry, looked up): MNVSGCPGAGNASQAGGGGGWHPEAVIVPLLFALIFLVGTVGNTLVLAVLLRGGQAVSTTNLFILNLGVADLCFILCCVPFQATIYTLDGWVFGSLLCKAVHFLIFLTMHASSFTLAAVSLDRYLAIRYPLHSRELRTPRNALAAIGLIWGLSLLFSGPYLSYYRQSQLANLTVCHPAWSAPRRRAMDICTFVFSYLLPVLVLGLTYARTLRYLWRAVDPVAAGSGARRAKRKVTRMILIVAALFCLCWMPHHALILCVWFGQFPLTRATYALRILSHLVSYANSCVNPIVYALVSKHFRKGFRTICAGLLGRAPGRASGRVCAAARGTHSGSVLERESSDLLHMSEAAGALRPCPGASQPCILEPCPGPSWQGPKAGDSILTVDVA
Chain of UniProt P09619 (whole entry, looked up): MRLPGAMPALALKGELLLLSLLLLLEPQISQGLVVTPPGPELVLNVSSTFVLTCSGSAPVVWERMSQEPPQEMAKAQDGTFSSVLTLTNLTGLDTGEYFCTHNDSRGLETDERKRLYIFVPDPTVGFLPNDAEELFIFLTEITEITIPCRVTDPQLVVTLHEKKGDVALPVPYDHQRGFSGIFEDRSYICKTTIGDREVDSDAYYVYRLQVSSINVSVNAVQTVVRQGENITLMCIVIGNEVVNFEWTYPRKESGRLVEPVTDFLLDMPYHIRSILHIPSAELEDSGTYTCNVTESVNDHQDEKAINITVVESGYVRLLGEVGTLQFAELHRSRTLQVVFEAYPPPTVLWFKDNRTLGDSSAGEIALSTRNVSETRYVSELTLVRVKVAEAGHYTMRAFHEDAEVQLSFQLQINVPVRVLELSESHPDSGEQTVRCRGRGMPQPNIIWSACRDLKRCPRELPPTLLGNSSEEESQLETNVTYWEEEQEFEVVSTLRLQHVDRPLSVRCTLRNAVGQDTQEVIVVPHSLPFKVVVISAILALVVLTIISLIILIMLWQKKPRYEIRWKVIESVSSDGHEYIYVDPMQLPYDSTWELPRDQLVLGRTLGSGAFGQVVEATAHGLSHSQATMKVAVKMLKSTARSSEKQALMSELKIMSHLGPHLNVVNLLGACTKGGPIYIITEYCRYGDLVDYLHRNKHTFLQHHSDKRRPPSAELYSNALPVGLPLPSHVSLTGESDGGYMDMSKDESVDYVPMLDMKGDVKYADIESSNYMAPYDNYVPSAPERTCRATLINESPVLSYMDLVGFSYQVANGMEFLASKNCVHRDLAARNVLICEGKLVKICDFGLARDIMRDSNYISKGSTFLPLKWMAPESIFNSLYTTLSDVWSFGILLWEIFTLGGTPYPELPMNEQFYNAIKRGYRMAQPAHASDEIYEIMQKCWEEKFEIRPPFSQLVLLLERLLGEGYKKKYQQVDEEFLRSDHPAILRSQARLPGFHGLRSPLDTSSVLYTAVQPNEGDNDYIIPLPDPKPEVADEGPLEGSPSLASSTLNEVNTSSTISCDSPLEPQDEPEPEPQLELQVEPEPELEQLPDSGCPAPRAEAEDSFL
Chain of UniProt Q8IU85 (whole entry, looked up): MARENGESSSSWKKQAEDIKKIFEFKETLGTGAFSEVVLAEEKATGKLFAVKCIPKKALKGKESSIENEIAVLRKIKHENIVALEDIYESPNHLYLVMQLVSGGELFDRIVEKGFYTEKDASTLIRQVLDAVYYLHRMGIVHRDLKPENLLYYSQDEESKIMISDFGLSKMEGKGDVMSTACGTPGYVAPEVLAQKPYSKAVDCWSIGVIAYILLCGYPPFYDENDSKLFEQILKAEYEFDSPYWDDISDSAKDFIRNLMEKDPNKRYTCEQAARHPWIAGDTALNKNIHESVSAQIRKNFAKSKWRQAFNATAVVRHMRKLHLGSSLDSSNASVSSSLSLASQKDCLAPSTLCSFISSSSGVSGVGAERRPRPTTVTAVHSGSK
Chain of UniProt Q13153 (whole entry, looked up): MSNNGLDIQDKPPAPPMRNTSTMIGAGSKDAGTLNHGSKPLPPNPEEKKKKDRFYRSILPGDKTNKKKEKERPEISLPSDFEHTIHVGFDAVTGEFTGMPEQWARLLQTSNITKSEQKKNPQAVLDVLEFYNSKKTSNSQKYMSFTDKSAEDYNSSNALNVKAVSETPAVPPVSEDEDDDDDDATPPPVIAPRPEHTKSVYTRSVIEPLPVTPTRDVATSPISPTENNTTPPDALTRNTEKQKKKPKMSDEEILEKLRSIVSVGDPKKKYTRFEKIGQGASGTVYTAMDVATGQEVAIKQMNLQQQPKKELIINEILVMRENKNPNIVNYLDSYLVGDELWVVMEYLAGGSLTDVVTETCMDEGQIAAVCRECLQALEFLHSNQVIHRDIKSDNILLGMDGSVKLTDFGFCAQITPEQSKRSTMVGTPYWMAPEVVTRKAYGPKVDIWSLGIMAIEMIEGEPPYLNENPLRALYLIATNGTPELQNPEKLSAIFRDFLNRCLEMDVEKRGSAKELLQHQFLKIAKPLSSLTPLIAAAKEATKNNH

CN(C)CC#CCC(O)(c1ccccc1)C1CCCC1.Cl (stereo not shown)
relative translation (Trypanosoma cruzi; reporter mRNA translation, inhibitor, refers to: capped polyadenylated Renilla luciferase mRNA; cell-free extract; concentration not given; relative to: control RNA): 102%

CC(C)[C@H]1NC(=O)C[C@H]2/C=C/CCSSC[C@@H](NC1=O)C(=O)N[C@H](Cc1cccc3ccccc13)C(=O)NCC(=O)O2
inhibition (PDGFRB (Homo sapiens, UniProt P09619); enzyme activity, inhibitor; 10 µM): 4%

CCN(Cc1ccc2nc(C)[nH]c(=O)c2c1)c1ccc(C(=O)NC(C(=O)O)C(C)C)cc1 (stereo not shown)
MIC50 (Mycobacterium tuberculosis; bacterial growth, inhibitor; H37Rv pptT conditional knockdown; PptT depleted, ATc withheld): 96 µM (≈ 41.9 µg/mL)

Cc1sc2c(c1C)C(c1ccc(Cl)cc1)=N[C@@H](CC(=O)OC(C)(C)C)c1nnc(C)n1-2
observed ΔH (Bromodomain testis-specific protein, BD1 (BRDT, Homo sapiens, UniProt Q58F21); isothermal titration calorimetry; 15 °C, reverse titration): -8.3 ± 0.024 kcal/mol

Nc1ccc(/C=C/C(=O)N2CCc3c(oc4c(-c5ccc(F)cc5)cc(-c5ccc(C(=O)N6CCC(F)(F)CC6)cn5)cc34)C2)cn1
remaining binding (PAK1 (Homo sapiens, UniProt Q13153); binding, competition with immobilised ligand; 1 µM): 92%

CC(C)CC(O)(CC(C)C)c1cn(C(=O)N2CCCC2)nn1
SILAC ratio (Serine hydrolase-like protein (Serhl, Mus musculus, UniProt Q9EPB5); probe labelling, inhibitor, competitive ABPP-SILAC, refers to: Serhl; mouse T cells; concentration not given, 4 h, in situ, single peptide; relative to: treated over DMSO, lower = more inhibition): 0.98 and 1.69 and 0.88 and 0.89 and 1.28

O=C1NC(=O)c2c1c1cc(F)c[n+]3c1c1c2c2cc(O)ccc2[n]1[Ru-4]312([N]=C=S)[S+]3CC[S+]1CC[S+]2CC3 (stereo not shown)
remaining activity (CAMK1D (Homo sapiens, UniProt Q8IU85); enzyme activity; 100 nM, human enzyme, with: 10 µM ATP; relative to: untreated): 21%

CCCn1ncc(CN2CCCC(C(=O)c3cccc(OC)c3)C2)c1C (stereo not shown)
relative translation (Trypanosoma cruzi; reporter mRNA translation, inhibitor, refers to: capped polyadenylated Renilla luciferase mRNA; cell-free extract; concentration not given; relative to: control RNA): 113%

N[C@H](C(=O)N1CCCC1)C1CCN(c2nccc3c(-c4ncc(Cl)cc4Cl)cccc23)CC1
kcat (PADI4 (Homo sapiens, UniProt Q9UM07); enzyme activity; 0.01573 µM, with: Ca2+ 0.25 mM): 0.614 s⁻¹ and 0.636 s⁻¹

CCCC1COC(Cn2cncn2)(c2ccc(Cl)cc2Cl)O1 (stereo not shown)
translation activity (Trypanosoma cruzi; reporter mRNA translation, inhibitor, refers to: Renilla luciferase mRNA; cell-free extract; concentration not given, test 1; relative to: positive over negative control): 87.8% and 93.5%

CS(C)(=O)=Nc1ccc(-c2ccc(-c3nc4cc(O[C@@H]5CO[C@H]6[C@@H]5OC[C@H]6O)[nH]c4cc3F)cc2)cc1
inhibition (GALR2 (Homo sapiens, UniProt O43603); calcium signal, antagonist; 10 µM): 69%

CCOc1ccc(CNCCc2ccc3c(c2)OCO3)cc1
translation activity (Trypanosoma cruzi; reporter mRNA translation, inhibitor, refers to: Renilla luciferase mRNA; cell-free extract; concentration not given, test 1; relative to: positive over negative control): 101%

CN(C)[C@H]1C[C@@]23CC[C@@]4(O2)C(=CC[C@]2(C)[C@@H](c5ccc6ccncc6c5)CC[C@H]24)C=C3[C@@H](O)[C@@H]1O
inhibition (PHKG2 (Homo sapiens, UniProt P15735); ATP probe labelling, inhibitor, KiNativ profiling; 0.1 µM): -5.5%
